Experimental data from different studies.
Parts stem from different laboratories: compare values within a part only.
Chain of UniProt P42336 (whole entry, unmodified, looked up): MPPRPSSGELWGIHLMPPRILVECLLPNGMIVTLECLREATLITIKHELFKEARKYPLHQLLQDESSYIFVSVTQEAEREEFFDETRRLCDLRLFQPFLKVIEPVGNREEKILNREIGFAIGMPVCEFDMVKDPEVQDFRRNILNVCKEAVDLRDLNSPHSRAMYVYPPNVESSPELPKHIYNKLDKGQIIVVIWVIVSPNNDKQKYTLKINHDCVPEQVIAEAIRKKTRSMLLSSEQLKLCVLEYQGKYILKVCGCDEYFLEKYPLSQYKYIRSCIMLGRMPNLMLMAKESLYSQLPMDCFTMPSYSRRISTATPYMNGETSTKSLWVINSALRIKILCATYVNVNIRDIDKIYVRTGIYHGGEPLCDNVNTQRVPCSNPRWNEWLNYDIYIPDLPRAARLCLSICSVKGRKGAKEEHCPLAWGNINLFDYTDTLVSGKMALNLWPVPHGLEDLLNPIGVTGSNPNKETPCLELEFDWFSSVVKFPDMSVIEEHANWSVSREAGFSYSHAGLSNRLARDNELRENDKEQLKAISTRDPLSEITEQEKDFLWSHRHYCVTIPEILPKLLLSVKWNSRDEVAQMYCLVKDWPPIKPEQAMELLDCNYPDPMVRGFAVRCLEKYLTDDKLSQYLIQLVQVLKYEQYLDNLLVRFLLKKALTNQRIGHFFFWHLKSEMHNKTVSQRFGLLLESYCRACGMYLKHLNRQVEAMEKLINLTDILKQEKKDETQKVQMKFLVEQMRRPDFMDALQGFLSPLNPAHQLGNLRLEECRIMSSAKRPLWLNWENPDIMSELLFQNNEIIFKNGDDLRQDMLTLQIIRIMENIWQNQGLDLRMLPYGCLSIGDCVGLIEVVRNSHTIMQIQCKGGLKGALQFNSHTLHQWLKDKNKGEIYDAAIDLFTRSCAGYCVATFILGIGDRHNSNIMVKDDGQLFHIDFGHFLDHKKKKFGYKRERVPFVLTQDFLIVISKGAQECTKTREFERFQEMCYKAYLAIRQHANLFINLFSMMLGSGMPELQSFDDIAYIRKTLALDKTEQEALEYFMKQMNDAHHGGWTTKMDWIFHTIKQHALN
Chain of UniProt P29317 (whole entry, looked up): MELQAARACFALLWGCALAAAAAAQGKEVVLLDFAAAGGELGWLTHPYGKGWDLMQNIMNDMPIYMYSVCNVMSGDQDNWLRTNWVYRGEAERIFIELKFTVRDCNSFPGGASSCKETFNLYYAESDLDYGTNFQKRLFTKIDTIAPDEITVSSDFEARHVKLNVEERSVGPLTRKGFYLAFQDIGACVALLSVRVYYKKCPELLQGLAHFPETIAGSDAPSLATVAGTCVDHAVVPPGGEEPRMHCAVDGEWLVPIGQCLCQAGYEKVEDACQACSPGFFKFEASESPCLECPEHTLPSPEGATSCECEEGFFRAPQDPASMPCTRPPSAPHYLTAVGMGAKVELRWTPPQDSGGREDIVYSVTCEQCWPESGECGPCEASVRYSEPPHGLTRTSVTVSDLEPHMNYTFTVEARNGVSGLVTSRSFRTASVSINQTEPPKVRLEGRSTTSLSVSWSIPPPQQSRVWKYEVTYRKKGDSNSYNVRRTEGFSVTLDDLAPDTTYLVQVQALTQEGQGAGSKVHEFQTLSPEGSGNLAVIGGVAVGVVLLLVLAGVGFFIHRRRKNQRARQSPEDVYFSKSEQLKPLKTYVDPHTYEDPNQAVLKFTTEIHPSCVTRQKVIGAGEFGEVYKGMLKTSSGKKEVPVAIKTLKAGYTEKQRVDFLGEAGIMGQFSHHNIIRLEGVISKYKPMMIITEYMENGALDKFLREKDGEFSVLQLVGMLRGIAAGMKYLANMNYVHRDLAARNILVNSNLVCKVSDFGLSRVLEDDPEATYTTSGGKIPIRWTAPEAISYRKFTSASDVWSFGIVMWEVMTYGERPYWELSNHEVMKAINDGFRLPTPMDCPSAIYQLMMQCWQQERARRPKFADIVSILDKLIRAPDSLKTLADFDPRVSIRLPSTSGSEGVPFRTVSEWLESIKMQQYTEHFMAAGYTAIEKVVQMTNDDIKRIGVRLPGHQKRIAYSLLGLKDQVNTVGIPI
Chain of UniProt P53667 (whole entry, looked up): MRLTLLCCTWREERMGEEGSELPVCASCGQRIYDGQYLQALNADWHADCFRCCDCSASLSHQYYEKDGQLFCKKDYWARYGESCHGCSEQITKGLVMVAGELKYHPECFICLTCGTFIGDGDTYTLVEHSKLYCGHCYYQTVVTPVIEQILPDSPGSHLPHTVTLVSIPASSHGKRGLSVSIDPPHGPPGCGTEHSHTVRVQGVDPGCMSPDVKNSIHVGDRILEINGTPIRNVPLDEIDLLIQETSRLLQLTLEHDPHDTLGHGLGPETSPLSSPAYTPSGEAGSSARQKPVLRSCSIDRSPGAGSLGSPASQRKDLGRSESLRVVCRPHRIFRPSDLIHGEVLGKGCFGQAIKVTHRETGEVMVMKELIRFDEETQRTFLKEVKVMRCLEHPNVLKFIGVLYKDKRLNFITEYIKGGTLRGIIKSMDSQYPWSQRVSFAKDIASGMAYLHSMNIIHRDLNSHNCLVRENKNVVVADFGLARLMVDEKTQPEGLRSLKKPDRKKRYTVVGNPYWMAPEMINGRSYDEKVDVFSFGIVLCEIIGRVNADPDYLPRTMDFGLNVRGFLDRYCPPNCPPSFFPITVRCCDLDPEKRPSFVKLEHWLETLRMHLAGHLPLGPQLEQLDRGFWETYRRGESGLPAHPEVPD
Chain of UniProt P15056 (whole entry, looked up): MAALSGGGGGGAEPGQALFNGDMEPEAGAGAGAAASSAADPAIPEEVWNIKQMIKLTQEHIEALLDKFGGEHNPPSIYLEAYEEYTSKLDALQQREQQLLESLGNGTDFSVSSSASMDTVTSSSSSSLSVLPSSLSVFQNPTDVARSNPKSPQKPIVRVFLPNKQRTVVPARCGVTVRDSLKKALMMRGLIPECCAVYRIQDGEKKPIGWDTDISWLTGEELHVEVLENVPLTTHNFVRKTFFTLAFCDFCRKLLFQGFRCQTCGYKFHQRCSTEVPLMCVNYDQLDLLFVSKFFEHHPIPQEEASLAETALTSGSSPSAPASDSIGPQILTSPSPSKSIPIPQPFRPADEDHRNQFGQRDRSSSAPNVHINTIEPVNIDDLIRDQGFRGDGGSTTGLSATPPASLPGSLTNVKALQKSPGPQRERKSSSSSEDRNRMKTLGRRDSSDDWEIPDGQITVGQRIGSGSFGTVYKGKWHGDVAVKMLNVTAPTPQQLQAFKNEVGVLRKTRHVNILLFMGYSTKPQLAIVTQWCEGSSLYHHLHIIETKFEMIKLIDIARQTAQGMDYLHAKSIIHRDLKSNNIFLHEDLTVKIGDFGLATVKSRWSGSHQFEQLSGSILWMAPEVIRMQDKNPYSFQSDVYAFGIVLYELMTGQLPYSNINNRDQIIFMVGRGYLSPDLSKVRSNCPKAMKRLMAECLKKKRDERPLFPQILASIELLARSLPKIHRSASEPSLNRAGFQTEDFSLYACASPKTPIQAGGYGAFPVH

Set 1
SMILES: CC(C)(O)c1cncc(-c2nc3ccc(F)cc3n2C2CC2)c1
Read-out: cell-free assay
Method: competition with immobilised ligand
Concentration: 1 µM
target | remaining binding [%]
EPHA2 (Homo sapiens, UniProt P29317) | 100
PIK3CA (Homo sapiens, UniProt P42336, E545K) | 95
BRAF (Homo sapiens, UniProt P15056) | 100
LIM domain kinase 1 (LIMK1, Homo sapiens, UniProt P53667) | 100

Set 2
Target: TAR DNA-binding protein 43, full length, His tag (TARDBP, Homo sapiens, UniProt Q13148, residues 1-414)
Method: RNA Bind-n-Seq
Molecule type: RNA
Sample: in vitro
Concentration: 20 nM
Setting: 6-mer, flanks averaged, single round
Added: 150 mM LiCl
Relative to: input library
Direction: higher = stronger binding
Sequence | 6-mer enrichment (R)
GCCGUA | 0.912
UAGGGG | 1.24
CUAGAA | 0.858
UCGUAC | 0.844
GUCCCG | 0.952
AUCUGU | 0.922
GAGUCU | 0.902
CGUUUU | 1.16

Set 3
Target: Serine/threonine-protein kinase 3 (STK3, Homo sapiens, UniProt Q13188)
Chain of UniProt Q13188 (whole entry, looked up): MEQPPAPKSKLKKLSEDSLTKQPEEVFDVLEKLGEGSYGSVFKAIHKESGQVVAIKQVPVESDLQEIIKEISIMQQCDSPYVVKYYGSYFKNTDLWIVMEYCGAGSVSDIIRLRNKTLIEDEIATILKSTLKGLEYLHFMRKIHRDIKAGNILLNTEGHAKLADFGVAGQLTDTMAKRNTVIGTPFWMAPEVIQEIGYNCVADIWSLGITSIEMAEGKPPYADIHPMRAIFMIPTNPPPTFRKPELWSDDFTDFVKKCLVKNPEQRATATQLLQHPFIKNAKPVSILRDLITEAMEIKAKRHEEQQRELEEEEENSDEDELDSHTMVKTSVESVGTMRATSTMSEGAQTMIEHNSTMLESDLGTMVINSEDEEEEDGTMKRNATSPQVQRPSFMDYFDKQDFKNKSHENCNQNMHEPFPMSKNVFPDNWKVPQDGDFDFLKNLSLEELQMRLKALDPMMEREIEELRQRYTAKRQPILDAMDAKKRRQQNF
Read-out: enzyme activity
Action: inhibitor
Concentration: 0.5 µM
Relative to: control
SMILES | remaining activity [%]
O=S(=O)(c1cccc2cnccc12)N1CCCNCC1 | 90
CO[C@H]1C[C@@H]2CC[C@@H](C)[C@@](O)(O2)C(=O)C(=O)N2CCCC[C@H]2C(=O)O[C@H]([C@H](C)C[C@@H]2CC[C@@H](O)[C@H](OC)C2)CC(=O)[C@H](C)/C=C(\C)[C@@H](O)[C@@H](OC)C(=O)[C@H](C)C[C@H](C)/C=C/C=C/C=C/1C | 105
O=c1c2ccccc2[nH]c(=S)n1CCN1CCC(=C(c2ccc(F)cc2)c2ccc(F)cc2)CC1 | 102
O=C(CCCc1ccc(-c2ccccc2F)cc1)Nc1ccc(O)cc1 | 94.8
O=C(O)c1ccc2c3c1cccc3c(=O)n1c3ccccc3nc21 | 97.1
CC(C)[C@H](CO)Nc1nc(Nc2cc(N)cc(Cl)c2)c2ncn(C(C)C)c2n1 | 70
Oc1ccc(-c2nc(-c3ccncc3)c(-c3ccc(F)cc3)[nH]2)cc1 | 105
COc1ccc(CNC(=O)Nc2ncc([N+](=O)[O-])s2)cc1 | 92.6
O=C1NC(=O)C(c2cn(CCCO)c3ncccc23)=C1c1cnccn1 | 74.4
Nc1ccc2ncnc(NCCc3ccc(Oc4ccccc4)cc3)c2c1 | 105
CNC(=O)c1cc(Oc2ccc(NC(=O)Nc3ccc(Cl)c(C(F)(F)F)c3)cc2)ccn1 | 96.9
CN(C)c1ccc(C=C2C(=O)Nc3ccccc32)cc1 | 100
CCOC(=O)c1c(C)[nH]c(/C=C2\C(=O)Nc3ccccc32)c1C | 73.7
NCCNc1ncc(C(N)=O)c(Nc2cccc(C(F)(F)F)c2)n1 | 98
Nc1ncnc2n[nH]c(Nc3ccc(F)cc3)c12 | 90.8

Set 4
Target: Histone acetyltransferase KAT6A, both winged helices, GST fusion (KAT6A, Homo sapiens, UniProt Q92794, residues 1-181)
Method: protein binding microarray
Molecule type: double-stranded DNA, one strand shown
Sample: in vitro
Concentration: not given
Setting: 8-mer, flanks averaged, mean of 2 arrays, mostly near background
Relative to: not given
Direction: higher = stronger binding
Construct (chain): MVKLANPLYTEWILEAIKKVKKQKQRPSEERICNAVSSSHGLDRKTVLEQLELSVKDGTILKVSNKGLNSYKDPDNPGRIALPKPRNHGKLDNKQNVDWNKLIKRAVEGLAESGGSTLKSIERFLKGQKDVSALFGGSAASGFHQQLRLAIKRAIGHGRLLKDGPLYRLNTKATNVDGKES
Sequence | E-score
CCAACTGC | 0.077
CGCCGGAG | 0.214
GCTCAGTA | -0.0247
GACAGGAA | -0.039
GTTGACCA | -0.151
CCTTATTA | -0.112
GCCTAAAA | -0.115
CCTCATAG | -0.162

A few entries again (set 1):
target | remaining binding [%]
BRAF (Homo sapiens, UniProt P15056) | 100
PIK3CA (Homo sapiens, UniProt P42336, E545K) | 95
EPHA2 (Homo sapiens, UniProt P29317) | 100
